Results pooled from the literature.
Every numbered part comes from another study and shows a few of its results, in no order.

Sample 1 — technique: RNA Bind-n-Seq; form: RNA; medium: in vitro; tested at: 365 nM; reference: no-protein control; reading: higher = stronger binding
Target: RNA binding protein fox-1 homolog 2, RRM domain, GST-SBP tag (RBFOX2, Homo sapiens, UniProt O43251-10, residues 100-194)
Notes: natural RNA segment, single round, ends assumed
Residues (chain): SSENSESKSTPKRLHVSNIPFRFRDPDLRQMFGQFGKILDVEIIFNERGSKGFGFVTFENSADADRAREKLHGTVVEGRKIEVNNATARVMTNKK
For `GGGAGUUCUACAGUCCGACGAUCGCUGGUAUCACAAGACCCUGAUACACAUUUCAGUGUUCCUAGCCCUUCUUGUCCUCCCUACCCUAAACUGCCCCCAACUCACAGGCUUCCCGUCCCCCAGCUGCCUGUCCUGGAAUUCUCGGGUGCCAA`, “RBNS enrichment (R)” read 1.79.
`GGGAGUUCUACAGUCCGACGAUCAAGGAUGAAAUCUCAGAACACAUGUCAGCUGCUUCUCAGGAAAUCUUUUCUUUGGACAAUUCACUUUAGAGUCUUUAAACGGGUCUCUCGUGGGGAGGAUAGAUGUGCUCUGGAAUUCUCGGGUGCCAA` — result for “RBNS enrichment (R)”: 0.408.
Under “RBNS enrichment (R)”, `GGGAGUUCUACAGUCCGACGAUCUGCUAUGCGCCCUAUUAGGAAGAGAGAGAGAGAGAAAGAGAGAGAGAGAGAAUGAGUCCUCCCUCAGUUGCUGCCUCUCACUCCUGGUGACAUGGUGCCACCCAAGCUUGUGGAAUUCUCGGGUGCCAA` is recorded as 3.64.
Under “RBNS enrichment (R)”, `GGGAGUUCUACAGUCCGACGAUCUACCCCACAGCUCUGUUCCAUGUAAGUUGCCAACAGUUUCACUGAACAGUGGGGUAUGUGAUGGUUUUGGCAUGACAUCUUCAGUAUGAGGGGGACAGUUUGACUUCACUUGGAAUUCUCGGGUGCCAA` is recorded as 0.593.
`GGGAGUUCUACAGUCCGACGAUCUUGGCUGGGCCUCUGGUUCUGACACUUUCUGCUGGAAGCUGUCAGGCUGGGACAGGCUUUGAUUUUGAGGGUUAGCAAGACAAAGCAAAUAAAUGCCUUCCACCUCACCGUGGAAUUCUCGGGUGCCAA` — result for “RBNS enrichment (R)”: 0.173.
`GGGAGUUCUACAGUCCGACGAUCCAGGGGAAGACCAAAGUUUGCAACUCGAACUGCUUUCGUCCAUGUUUCUCACAUUGCUGUAUUUUAGAAAAUAGGGGUUAAGACUGAUAACAACCUUUUACAUUGUGACUUGGAAUUCUCGGGUGCCAA` — result for “RBNS enrichment (R)”: 1.21.
`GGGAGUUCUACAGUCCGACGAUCGAUAUAGCAGUGGCAUCCAAGAGCUCAGCACAGUGUCUGGCAUCUGGUGUGCAUGGGCACAUGUACUGACUAUGACUGUCGGUGUGUGUUGUUAUACAGUCCAGGAACUGUGGAAUUCUCGGGUGCCAA` — result for “RBNS enrichment (R)”: 7.82.
`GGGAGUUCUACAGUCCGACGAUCAGUCAAGUCUCAGCUUUACCACUAACUAGCUGUGUGGCCUUGAGCAAAUACUAUUACUUCUCUGAGCCUCCGUUACGCCGUCUGUAAAAAGGGAGGUGAAAAUACCUACCUGGAAUUCUCGGGUGCCAA` — result for “RBNS enrichment (R)”: 0.271.
Under “RBNS enrichment (R)”, `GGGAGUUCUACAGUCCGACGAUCCUUGAUCCUGUAGUUGGUUUUGACCUGGUGUGGUCCCUCCAUGCUGUGGAAGUGAAAUGUGAGGGAACAGGCCUGGGGGCAGUGAGGGAGACAGGACAAGCCUUUCAUCUUGGAAUUCUCGGGUGCCAA` is recorded as 0.575.
For `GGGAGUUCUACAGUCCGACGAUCGAGGUCUCCUGAGGACCUGGGCCUGUUCUGCUCCUAGGAGACCUGAGCCCGUUACCGCGUGACUCCCACCAUCCAGCUCGCGCUCCUCGUGGAUUCAGCCAUGCAUGGACUGGAAUUCUCGGGUGCCAA`, “RBNS enrichment (R)” read 0.705.
For `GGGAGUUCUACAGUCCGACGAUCAGACUCACUCACUCUUAGUUUUUAAGAACUGGAAAUUUCCCAUCCUCAGAUCCCUUAAAGGAUGAAGAGUUGGCUGUACACUUAGCGGACUUGCCUCUUGUAUGCAAGGAUGGAAUUCUCGGGUGCCAA`, “RBNS enrichment (R)” read 0.404.
For `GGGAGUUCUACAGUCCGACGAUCUAAAUAAGAAACAACUCUUUGAGAAACAACAAUUUCUACUUUGAAGUCAUACCAAUGAAAAAAUGUAUAUGCACUUAUAAUUUUCCUAAUAAAGUUCUGUACUCAAAUGUUGGAAUUCUCGGGUGCCAA`, “RBNS enrichment (R)” read 0.948.

Sample 2 — technique: protein-binding microarray; form: double-stranded DNA, one strand shown; medium: in vitro; tested at: not given; reading: higher = stronger binding
Target: Protein C-ets-1 (ETS1, Homo sapiens, UniProt P14921, residues 1-441, full length assumed)
Notes: k-mer, scored over probes, only values ≥0.25
Construct (chain): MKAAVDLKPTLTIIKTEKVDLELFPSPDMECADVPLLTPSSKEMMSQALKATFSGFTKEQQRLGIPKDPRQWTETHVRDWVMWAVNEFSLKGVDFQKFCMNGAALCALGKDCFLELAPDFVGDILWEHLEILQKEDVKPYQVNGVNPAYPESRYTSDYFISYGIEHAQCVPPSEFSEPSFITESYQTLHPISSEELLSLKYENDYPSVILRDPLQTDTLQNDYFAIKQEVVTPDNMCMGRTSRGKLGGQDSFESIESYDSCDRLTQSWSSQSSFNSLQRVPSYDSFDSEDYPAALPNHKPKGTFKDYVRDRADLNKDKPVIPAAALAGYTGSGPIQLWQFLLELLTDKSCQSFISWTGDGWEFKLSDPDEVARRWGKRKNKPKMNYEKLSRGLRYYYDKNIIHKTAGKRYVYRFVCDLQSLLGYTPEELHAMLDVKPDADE
With `CGGTTCCC` the E-score was 0.267.
With `CAGACCGG` the E-score was 0.357.
The E-score of `TACCCGGA` is reported as 0.386.
`CCCGGATA` gave an E-score of 0.453.
With `AGACGGAT` the E-score was 0.374.
For `CCGGAGGC`, the E-score was 0.277.
`TGGGGGAA` gave an E-score of 0.263.
With `ACTTCCTA` the E-score was 0.442.
`CACCCGGA` gave an E-score of 0.325.
With `GATATAGC` the E-score was 0.306.
With `CGAAGGAA` the E-score was 0.267.
With `CCCCGGAC` the E-score was 0.312.
For `CAACATCC`, the E-score was 0.438.
`ACAGCGGA` has an E-score of 0.306.
`ACGGAAGA` gave an E-score of 0.405.
The E-score of `AGGATACT` is reported as 0.277.
For `CGGACGGC`, the E-score was 0.279.
For `AGGATGAG`, the E-score was 0.33.
With `AAGGAAGT` the E-score was 0.443.
`CCCGCCAC` has an E-score of 0.302.
For `CTATGTCC`, the E-score was 0.252.
`ACCGGAAC` has an E-score of 0.472.
With `GCCCTTCC` the E-score was 0.369.

Sample 3 — technique: protein binding microarray; form: double-stranded DNA, one strand shown; medium: in vitro; tested at: not given; reference: not given; reading: higher = stronger binding
Target: Histone acetyltransferase KAT6A, both winged helices, GST fusion (KAT6A, Homo sapiens, UniProt Q92794, residues 1-181)
Notes: 8-mer, flanks averaged, mean of 2 arrays, mostly near background
Construct (chain): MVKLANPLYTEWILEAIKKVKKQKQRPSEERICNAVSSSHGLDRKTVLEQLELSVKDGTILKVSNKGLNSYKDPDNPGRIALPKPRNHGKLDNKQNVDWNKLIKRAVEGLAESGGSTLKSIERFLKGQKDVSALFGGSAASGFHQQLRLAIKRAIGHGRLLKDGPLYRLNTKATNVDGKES
The E-score of `AGCAGTAT` is reported as -0.171.
`CTAGGTGA` has an E-score of -0.177.
For `GATAGCCA`, the E-score was -0.159.
`AATCGCCC` has an E-score of -0.0407.
The E-score of `CCGGTGTA` is reported as 0.19.
With `GATGAACA` the E-score was -0.00928.
For `ATCTCTAA`, the E-score was -0.14.
`TCCTTAAA` has an E-score of -0.192.
With `AGGGTAGC` the E-score was 0.0161.
The E-score of `GATTGAGC` is reported as 0.0263.
`ACACCGCT` has an E-score of 0.142.
`CTCGTTCA` has an E-score of 0.0103.
`CGGTTTCC` gave an E-score of 0.231.
`ACCTGAAG` has an E-score of -0.144.
The E-score of `CATTGGTA` is reported as -0.0484.
`CCGCGTAA` gave an E-score of 0.322.
With `CTACCAGA` the E-score was -0.0915.
`CTAGCGGC` has an E-score of 0.334.
`CTCCCCTC` has an E-score of -0.231.
`ATATTATC` gave an E-score of 0.0207.

Sample 4 — technique: protein-binding microarray; form: double-stranded DNA, one strand shown; medium: in vitro; tested at: 250 nM; notes: 60-bp whole probe; together with: salmon DNA 0.4 mg/ml; reference: random background probes; reading: higher = stronger binding; constant ends, left off below: GCCTAGCAC … GTCTTGATTCGCTTGACGCTGCTG
Target: Interferon regulatory factor 5, full length, phosphomimetic (IRF5, Homo sapiens, UniProt Q13568-2, residues 1-514, K96S/S451D/S453D/S456D/S462D)
With `TTAGATATCGGGTAGCGATTAGTGCTA` the log fluorescence was 2.3 z-score.
For `GACGGTTCCCTCTTCCTGACGTGCTAG`, the log fluorescence was 0.203 z-score.
`GACGATTTCAGTTCCGAGTCGTGCTAG` has a log fluorescence of 1.82 z-score.
`GACGGACTGCTTCTCCAGACGTGCTAG` has a log fluorescence of -0.486 z-score.
`TTAGGACTGCTCATCCTTTAGTGCTAG` gave a log fluorescence of -0.271 z-score.
For `GACGGTCTCCTTCTCATGACGTGCTAG`, the log fluorescence was -0.0244 z-score.
`ATAGGTTTCGGACTGGGTTAGTGCTAG` gave a log fluorescence of 4.96 z-score.
The log fluorescence of `GACGGTTTCCGTATCCTGACGTGCTAG` is reported as 0.879 z-score.
`TTAGGACTGGACTCTGGGTTAGTGCTA` gave a log fluorescence of -0.386 z-score.
For `GACGATACCAGTCTCGAGACGTGCTAG`, the log fluorescence was 0.523 z-score.
For `GACGGATTGGGGTATCGGGACGTGCTA`, the log fluorescence was 0.112 z-score.
With `TTATATTTCGGGACTGGATTAGTGCTA` the log fluorescence was 3.26 z-score.
With `GACGGTATCGGGACTGGGGTCGTGCTA` the log fluorescence was 1.16 z-score.
`GGCTCTCAGTGGGCTGCTGGGTGCTAG` has a log fluorescence of -0.61 z-score.
With `TTAGAACTGAGTTTCCATTAGTGCTAG` the log fluorescence was 1.13 z-score.
The log fluorescence of `TCAGCTCTGTGCTTTCCTACTGTGCTA` is reported as -0.0199 z-score.
For `GACGAAATGAGTTTCGAGACGTGCTAG`, the log fluorescence was 6.05 z-score.
For `GAAGATTTCAGTTTCGAGACGTGCTAG`, the log fluorescence was 7 z-score.
The log fluorescence of `CTCCTTTTAATTTTTAACGAGTGCTAG` is reported as 0.486 z-score.
With `GACGGTCTCCTTATTCTGACGTGCTAG` the log fluorescence was 0.0451 z-score.
The log fluorescence of `TTAGGTTTCAGTATCGGTTAGTGCTAG` is reported as 9.49 z-score.
For `TTAGGTCTCGGTGTCGGTTAGTGCTAG`, the log fluorescence was 0.619 z-score.

Sample 5 — technique: universal PBM; form: double-stranded DNA, one strand shown; medium: in vitro; tested at: 600 nM; reading: higher = stronger binding
Target: Sal-like protein 4, full length isoform A (SALL4, Homo sapiens, UniProt Q9UJQ4, residues 1-1053)
Chain of UniProt Q9UJQ4 (whole entry, looked up): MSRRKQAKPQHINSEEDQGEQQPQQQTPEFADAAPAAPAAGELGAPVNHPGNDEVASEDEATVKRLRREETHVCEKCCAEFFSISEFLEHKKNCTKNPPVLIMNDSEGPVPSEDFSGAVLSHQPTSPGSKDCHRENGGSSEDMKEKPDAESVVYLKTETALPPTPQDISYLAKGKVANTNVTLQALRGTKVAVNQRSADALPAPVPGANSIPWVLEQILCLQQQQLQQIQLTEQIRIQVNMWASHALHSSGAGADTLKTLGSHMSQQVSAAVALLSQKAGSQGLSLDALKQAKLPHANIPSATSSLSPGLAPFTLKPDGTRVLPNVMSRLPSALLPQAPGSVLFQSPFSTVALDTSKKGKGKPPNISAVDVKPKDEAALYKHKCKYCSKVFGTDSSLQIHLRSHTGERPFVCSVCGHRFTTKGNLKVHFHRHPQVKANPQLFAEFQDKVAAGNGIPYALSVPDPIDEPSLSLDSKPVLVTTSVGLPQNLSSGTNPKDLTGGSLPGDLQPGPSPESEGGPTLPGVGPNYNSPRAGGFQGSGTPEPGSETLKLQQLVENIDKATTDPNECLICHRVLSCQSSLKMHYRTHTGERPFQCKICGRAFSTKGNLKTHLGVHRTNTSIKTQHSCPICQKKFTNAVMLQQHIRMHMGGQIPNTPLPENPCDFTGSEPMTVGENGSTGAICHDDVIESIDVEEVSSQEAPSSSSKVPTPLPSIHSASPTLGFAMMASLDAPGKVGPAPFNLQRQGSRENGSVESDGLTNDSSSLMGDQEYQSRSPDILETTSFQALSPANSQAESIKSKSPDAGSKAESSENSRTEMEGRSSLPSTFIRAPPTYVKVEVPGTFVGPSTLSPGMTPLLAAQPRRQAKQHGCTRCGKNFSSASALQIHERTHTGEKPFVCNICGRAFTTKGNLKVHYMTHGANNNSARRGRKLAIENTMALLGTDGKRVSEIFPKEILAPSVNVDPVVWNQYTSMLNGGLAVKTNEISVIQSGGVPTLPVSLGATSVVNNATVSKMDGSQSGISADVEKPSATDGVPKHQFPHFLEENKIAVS
Notes: 8-mer, flanks averaged, mean of replicates
For `AGTGCGTC`, the E-score was -0.206.
`ACGCAAGA` gave an E-score of -0.0419.
`ACACACAA` gave an E-score of 0.177.
The E-score of `AAGTCATC` is reported as 0.115.
`CCCCCGCC` has an E-score of -0.364.
The E-score of `AGTGATCA` is reported as -0.0363.
For `CACATCCA`, the E-score was -0.00305.
With `GTCCAATA` the E-score was 0.158.
The E-score of `CATTTGAC` is reported as 0.132.
The E-score of `TCAAGTGA` is reported as 0.0773.
`ATGCTAAG` has an E-score of 0.147.
`TCCGCCAA` has an E-score of -0.174.
The E-score of `AAGCGTCC` is reported as -0.231.
The E-score of `GAGCACTA` is reported as 0.00451.
`CGGCGGTA` gave an E-score of -0.256.
`GGGTACCC` has an E-score of -0.371.
